Experimental data of several laboratories.
Each numbered part is a random draw from the data of one study; scales do not carry over between parts. Substitutions count along the parent as printed.
Chain of UniProt Q9Y243 (whole entry, looked up): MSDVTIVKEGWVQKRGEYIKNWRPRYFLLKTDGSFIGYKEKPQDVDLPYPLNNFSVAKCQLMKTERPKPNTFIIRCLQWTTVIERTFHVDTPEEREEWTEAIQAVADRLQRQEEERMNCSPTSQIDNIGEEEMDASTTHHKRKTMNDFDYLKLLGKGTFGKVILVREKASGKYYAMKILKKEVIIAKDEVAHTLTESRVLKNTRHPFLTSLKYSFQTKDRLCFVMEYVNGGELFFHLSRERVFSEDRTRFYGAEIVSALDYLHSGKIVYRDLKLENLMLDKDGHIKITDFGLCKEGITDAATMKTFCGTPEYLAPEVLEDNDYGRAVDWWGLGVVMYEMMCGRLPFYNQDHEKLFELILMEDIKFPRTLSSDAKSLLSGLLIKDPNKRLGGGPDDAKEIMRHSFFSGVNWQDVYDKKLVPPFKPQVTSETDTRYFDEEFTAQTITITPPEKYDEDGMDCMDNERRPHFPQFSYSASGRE

Block 1
Target: CEP164, C-terminal peptide (human)
Method: DHFR complementation, deep sequencing
Matrix: yeast
Setting: single substitutions, model-inferred values
Baseline: wild type
Direction: higher = weaker binding
Parent: PDZK1, PDZ domain 2 (human); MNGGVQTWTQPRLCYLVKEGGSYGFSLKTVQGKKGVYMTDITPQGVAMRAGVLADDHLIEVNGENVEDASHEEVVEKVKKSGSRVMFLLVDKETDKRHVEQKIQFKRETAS; partner HNRVKVYRF
Variant	binding free energy change [kcal/mol]
A50K	0.479
E108H	-0.282
A50G	0.224
E64F	0.284
E100D	0.0152
S70N	0.0955
L16R	1.39
K106E	-0.122

Block 2
Target: Sal-like protein 4, full length isoform B (SALL4, Homo sapiens, UniProt Q9UJQ4-2, residues 1-616)
Method: universal PBM
Form: double-stranded DNA, one strand shown
Matrix: in vitro
Concentration: not given
Setting: 8-mer, flanks averaged, mean of replicates
Direction: higher = stronger binding
Strand	E-score
TAGAATCA	0.136
AACGGCGT	-0.0463
AACCTTTC	0.00102
CGTCTCCA	-0.0649
GCAATCGC	-0.161
TGATGCAA	0.105
CCCGTGGC	-0.277
CCGTACCC	-0.221

Single results of other studies
Substance	target	assay	system	setting	how to read	endpoint	value
PhoQ, residues 284 288 289 292 302 303 QWGLFV	PhoP, residues 12 14 15 18 19 SYFRT (Escherichia coli, UniProt P23836)	Sort-seq, refers to: YFP reporter	E. coli	PhoQ-PhoP variant library, together with: 10 µM Mg2+	baseline: high Mg2+ state, higher = stronger signaling	fold induction	0.821
CCOc1nc(NC(=O)Cc2cc(OC)ccc2OC)cc(N)c1C#N	RAC-gamma serine/threonine-protein kinase (AKT3, Homo sapiens, UniProt Q9Y243)	enzyme activity, inhibitor		0.5 µM	baseline: control	remaining activity	105%

A few entries again (block 2):
Strand	E-score
TAGAATCA	0.136
AACGGCGT	-0.0463
AACCTTTC	0.00102
